# Assay results pooled from the literature.
# Several values in a cell are separate wells, animals, samples, runs or records. Numbers after ± are the reported error.
Structure (SMILES),cell line,assay,test system,setting,how to read,endpoint,value
CC(=O)N[C@@H](CO)C(=O)N[C@@H](CC(=O)O)C(=O)N[C@@H](CCCCNC(=O)CCCC[C@@H]1SC[C@@H]2NC(=O)N[C@@H]21)C(=O)N1CCC[C@H]1C(=O)O,A549,flow cytometry,,"40 µg/mL, 0 min, 37 °C",baseline: cells,cellular uptake,0%
CC(C)C[C@@H](N)C(=O)NCC(=O)N[C@H](C)C(=O)N[C@H](CO)C(=O)N[C@H](Cc1c[nH]c2ccccc12)C(=O)N[C@H](Cc1c[nH]cn1)C(=O)N[C@H](CCCNC(=N)N)C(=O)N1CCC[C@@H]1C(=O)N[C@H](CC(=O)O)C(=O)N[C@H](CCCCN)C(=O)NCCCC[C@@H](NC(=O)[C@H]1CCCN1C(=O)[C@@H](CC(C)C)NC(=O)[C@H]1CCCN1C(=O)[C@@H](CCCNC(=N)N)NC(=O)[C@@H](CCCCN)NC(=O)[C@@H](CCC(N)=O)NC(=O)[C@@H](Cc1ccc(O)cc1)NC(=O)CNC(=O)[C@@H](CC(C)C)NC(=O)[C@@H](CS)NC(=O)[C@@H](CS)NC(=O)[C@@H](CCCCN)NC(=O)[C@@H](CC(=O)O)NC(=O)[C@H]1CCCN1C(=O)[C@@H](CCCNC(=N)N)NC(=O)[C@@H](Cc1c[nH]cn1)NC(=O)[C@@H](Cc1c[nH]c2ccccc12)NC(=O)[C@@H](CO)NC(=O)[C@@H](C)NC(=O)CNC(=O)[C@H](N)CC(C)C)C(N)=O,CEM,LIVE/DEAD calcein-ethidium,,"up to 100 µM, 7 days",,cytotoxicity,not toxic
CN(C(=O)CN1CCCC2=CC3CC(CN4CCCCC34)C21)c1ccc(Br)cc1 (centres unmarked),Huh-7,cytotoxicity,,,,CC50,> 267 µM
CC[C@H](C)[C@H](NC(=O)[C@H](CCCCN)NC(=O)[C@H](CCCCN)NC(=O)[C@H](Cc1ccccc1)NC(=O)[C@H](CC(C)C)NC(=O)[C@H](CCCCN)NC(=O)[C@H](Cc1c[nH]c2ccccc12)NC(=O)[C@@H](CCCCN)NC(C)=O)C(=O)NCC(=O)N[C@@H](C)C(=O)N[C@H](C(=O)N[C@@H](CC(C)C)C(=O)N[C@H](CCCCN)C(=O)N[C@H](C(=O)N[C@@H](CC(C)C)C(N)=O)C(C)C)C(C)C,RAW264.7,"cell viability, MTT",,"1 h, 37 °C",,LD50,5.4 µM
COC(=O)C1CN1S(=O)(=O)c1ccc(N(C)C)cc1 (centres unmarked),Balb/c 3T3 fibroblasts,"cytotoxicity, neutral red uptake",DMEM with 5% FBS,24 h,,IC50,130 ± 6 µM
CCCCn1cc(C(=O)O)c(=O)c2cc(F)c(Nc3cccc(Cl)c3)c(N)c21,K562,"cell growth or viability, SRB",,,,IC50,88.7 µM and 88 µM
N=C(N)NCCC[C@@H]1NC(=O)[C@H](Cc2csc3ccccc23)NC(=O)[C@@H](Cc2ccccc2)NC(=O)[C@H](Cc2ccccc2)NC(=O)[C@H](CCC(=O)NCCOCCOCC(=O)N[C@@H](CCCCNC(=O)c2ccc3c(c2)C(=O)OC32c3ccc4cc(O)ccc4c3Oc3c2ccc2cc(O)ccc32)C(N)=O)NC(=O)[C@@H](CCCNC(=N)N)NC(=O)[C@H](CCCNC(=N)N)NC(=O)[C@@H](CCCNC(=N)N)NC1=O,HeLa,,,"5.0 µM, 1% FBS",baseline: CPP12,endosomal escape efficiency,108 ± 9%
COc1cc2c(cc1OC)C(=O)C(=Cc1ccc(N3CC[N+](C)(C)CC3)cc1)C2,B16,"cell viability, MTT",,48 h,,LD50,3.17 µM
"COc1cc(C2C3C4=[N+](CCc5cc(O)c(OC)cc54)C(c4c3ccc(OC)c4OC)C2C(=O)[O-])ccc1O (single isomer, unassigned; (+))",HEK293T-ACE2,,,,,maximum nontoxic concentration,100 µM
Cc1cc(Nc2nc(C[C@@]3(C(=O)O)CCN(Cc4cccc(Cl)c4F)[C@H](C)C3)cc(C)c2F)n[nH]1,human bone marrow CFU-GM,colony formation,,13 to 15 days,,IC90,0.618 µM
N=C(N)NCCC[C@H](NC(=O)[C@H](CCCNC(=N)N)NC(=O)[C@H](CCCNC(=N)N)NC(=O)[C@H](CCC(N)=O)NC(=O)[C@H](CCCNC(=N)N)NC(=O)[C@H](CCCNC(=N)N)NC(=O)[C@H](CCCCN)NC(=O)[C@H](CCCCN)NC(=O)[C@H](CCCNC(=N)N)NC(=O)[C@H](Cc1c[nH]c2ccccc12)NC(=O)[C@H](Cc1c[nH]c2ccccc12)NC(=O)[C@@H](N)CSSC[C@H](N)C(=O)N[C@@H](Cc1c[nH]c2ccccc12)C(=O)N[C@@H](Cc1c[nH]c2ccccc12)C(=O)N[C@@H](CCCNC(=N)N)C(=O)N[C@@H](CCCCN)C(=O)N[C@@H](CCCCN)C(=O)N[C@@H](CCCNC(=N)N)C(=O)N[C@@H](CCCNC(=N)N)C(=O)N[C@@H](CCC(N)=O)C(=O)N[C@@H](CCCNC(=N)N)C(=O)N[C@@H](CCCNC(=N)N)C(=O)N[C@@H](CCCNC(=N)N)C(=O)NCC(N)=O)C(=O)NCC(N)=O,sample A primary mouse astrocytes,,,"concentration not given, 1 h",,SYTOX green-positive cells,< 15%
CN(C)C(=O)C1CN1S(=O)(=O)c1ccc(F)cc1F (centres unmarked),Balb/c 3T3 fibroblasts,"cytotoxicity, neutral red uptake",DMEM with 5% FBS,24 h,,IC50,15 ± 1 µM
O=C1CCc2ccc(OCCCCCCSC(=S)N3CCCCC3)cc2N1,HT-22,CCK-8,,"up to 12.5 µM, 24 h",,cytotoxicity,not toxic
COC1(c2ccccc2)CC(=O)c2c(cc3c(c2O)C=CC(C)(C)O3)O1 (centres unmarked),differentiated SH-SY5Y,MTT,,1 µM,baseline: control,viability,99.9 ± 4.6%
CCCCn1cc(C(=O)O)c(=O)c2cc(F)c3c(nnn3-c3cccc(Cl)c3)c21,PANC-1,"cell growth or viability, SRB",,,,IC50,55.7 µM
CC1(C)C=Cc2c(ccc3c(=O)cc(-c4ccccc4)oc23)O1,differentiated SH-SY5Y,MTT,,0.1 µM,baseline: control,viability,97.1 ± 3.8%
COc1cc(/C=C/C(=O)CC(=O)/C=C/c2ccc(O)c(O)c2)ccc1O,MDCK,MTT,,24 h,,maximum non-toxic concentration,20 µM
CCCCn1cc(C(=O)O)c(=O)c2cc(F)c(Nc3cccc(Cl)c3)c([N+](=O)[O-])c21,K562,"cell growth or viability, SRB",,,,IC50,350 µM
COc1c(C(=O)/C=C(\O)c2ccccc2)ccc2c1C=CC(C)(C)O2,differentiated SH-SY5Y,MTT,,10 µM,baseline: control,viability,101 ± 1.4%
CC(C)c1ccc(S(=O)(=O)N2CC2C(=O)N(C)C)cc1 (centres unmarked),Balb/c 3T3 fibroblasts,"cytotoxicity, neutral red uptake",DMEM with 5% FBS,24 h,,IC50,12 ± 2 µM
CC(=O)N(O)CCCP(=O)(O)O,mouse lymphoma L5178Y TK+/- 3.7.2C,TK locus mutation,,"125 µg/mL, 4 h, without S9",baseline: negative control,mean mutant frequency,130%
CCCCn1cc(C(=O)O)c(=O)c2cc(F)c(Nc3ccccc3Cl)c(N)c21,K562,"cell growth or viability, SRB",,,,IC50,76.4 µM
CCc1nc2cc3ccccc3cc2cc1C(=O)N1CCC[C@H]1C(=O)N[C@@H](C/C=C\C[C@H](NC(=O)[C@@H]1CCCN1C(=O)c1cc2cc3ccccc3cc2nc1CC)C(=O)N[C@@H](CCCCN)C(=O)NCCCN)C(=O)N[C@@H](CCCCN)C(=O)NCCCN,C2C12 mouse myoblasts,MTT,,"up to 100 µM, 48 h",,cytotoxicity,not toxic
CCCCn1cc(C(=O)O)c(=O)c2cc(F)c(Nc3ccccc3Cl)c([N+](=O)[O-])c21,K562,"cell growth, SRB",,72 h,,IC50,91 ± 5.7 µg/mL
COc1cc2c(c3oc(-c4ccccc4)cc(=O)c13)C=CC(C)(C)O2,differentiated SH-SY5Y,MTT,,0.1 µM,baseline: control,viability,102 ± 2.6%
CC[C@H](C)[C@H](NC(=O)[C@@H](NC(=O)[C@H](CCCNC(=N)N)NC(=O)[C@H](CO)NC(=O)[C@H](CCCCN)NC(=O)[C@H](CC(C)C)NC(=O)[C@H](C)NC(=O)[C@H](CC(=O)O)NC(=O)[C@@H]1CCCN1C(=O)[C@H](CCC(N)=O)NC(=O)[C@@H]1CCCN1C(=O)[C@@H]1CCCN1C(=O)[C@H](CCCNC(=N)N)NC(=O)[C@H](CCCNC(=N)N)NC(=O)[C@H](CCCNC(=N)N)NC(=O)[C@H](CCC(N)=O)NC(=O)[C@H](CCCNC(=N)N)NC(=O)[C@H](CCCNC(=N)N)NC(=O)[C@H](CCCCN)NC(=O)[C@H](CCCCN)NC(=O)[C@H](CCCNC(=N)N)NC(=O)CN)[C@@H](C)O)C(=O)N[C@@H](CCCNC(=N)N)C(=O)O,HT-22,,,,,cytotoxic concentration,> 100 µM
CC(C)=C1CC[C@]23CO[C@H](C2)[C@@](O)(C(=O)O)CC[C@@H]13,A-375,CellTiter-Glo,,"up to 500 µM, 72 h",,cytotoxicity,not toxic
COc1ccc2c(=O)c(OC)c(-c3ccc(OC)c(OC)c3)oc2c1,differentiated SH-SY5Y,MTT,,10 µM,baseline: control,viability,99.6 ± 3.3%
C(#Cc1cncc(OC[C@@H]2CCN2)c1)c1ccccc1,Caco-2,Caco-2 permeability,,"100 µM, 2 h, pH 7.4, added: verapamil 100 µM",baseline: Papp B to A over A to B,efflux ratio,~1
CC1(C)C=Cc2c(cc(O)c3c(=O)cc(-c4ccccc4)oc23)O1,differentiated SH-SY5Y,MTT,,"1 µM, 24 h, retinoic acid differentiated",baseline: control,viability,103 ± 1.8%
Nc1ncnc2c1c(F)cn2[C@@H]1O[C@H](CO)[C@@H](O)[C@H]1O,MRC-5 SV2,"cytotoxicity, resazurin",medium with 5% FBS,72 h,,EC50,0.16 ± 0.03 µM
CC[C@H](C)[C@H](NC(=O)CNC(=O)[C@H](CCCNC(=N)N)NC(=O)[C@H](CCCCN)NC(=O)CNC(=O)[C@H](CC(N)=O)NC(=O)CNC(=O)CNC(=O)CNC(=O)[C@H](CC(C)C)NC(=O)[C@H](C)NC(=O)CNC(=O)[C@H](Cc1c[nH]c2ccccc12)NC(=O)[C@H](Cc1ccc(O)cc1)NC(=O)CNC(=O)[C@H](CCCNC(=N)N)NC(=O)[C@H](CCSC)NC(=O)CNC(=O)[C@H](CCCCN)NC(=O)[C@H](CC(N)=O)NC(=O)[C@H](Cc1ccccc1)NC(=O)[C@H](CCCCN)NC(=O)[C@@H](N)CC(N)=O)C(=O)N[C@@H](CCCNC(=N)N)C(=O)NCC(=O)N[C@@H](Cc1ccc(O)cc1)C(=O)N[C@@H](CC(=O)O)C(=O)O,SK-BR-3,MTT,,"1 nM to 10 µM, 24 h",,cytotoxicity,not toxic
CO/C(=C\C(=O)c1ccc2occc2c1OC)c1ccccc1,differentiated SH-SY5Y,MTT,,0.1 µM,baseline: control,viability,102 ± 4.6%
COC(=O)[C@H](CO)NC(=O)[C@H](CCCCN(CC(C)C)C1CC2CCC1C2)NC(=O)[C@H](CCCN1CCOCC1)NC(=O)[C@H](C(C)C)N(C)C(=O)[C@H](Cc1ccccc1)NC(=O)c1ccc(C(C)(C)C)cc1 (some centres unmarked),mouse embryonic stem cells,"cytotoxicity, CellTiter-Glo",,48 h,,DC50,4.4 ± 0.41 µM
CC[C@H](C)[C@H](NC(=O)[C@H](CCCCN)NC(=O)[C@H](C)NC(=O)[C@H](CCCNC(=N)N)NC(=O)[C@H](CCCCN)NC(=O)[C@H](CC(N)=O)NC(=O)[C@H](CCC(N)=O)NC(=O)[C@H](Cc1ccccc1)NC(=O)[C@H](Cc1c[nH]c2ccccc12)NC(=O)[C@@H](NC(=O)[C@H](CCCCN)NC(=O)[C@@H](NC(=O)[C@H](CCC(N)=O)NC(=O)[C@H](CO)NC(=O)[C@H](CC(C)C)NC(=O)[C@H](CCC(N)=O)NC(=O)[C@H](C)NC(=O)[C@H](CCCNC(=N)N)NC(=O)[C@@H](NC(=O)[C@H](Cc1ccccc1)NC(=O)[C@@H](NC(=O)[C@@H](NC(=O)[C@H](CCCNC(=N)N)NC(=O)[C@H](CCC(=O)O)NC(=O)[C@H](CCCNC(=N)N)NC(=O)[C@H](CCCNC(=N)N)NC(=O)[C@H](CCC(N)=O)NC(=O)[C@H](CCCCN)NC(=O)[C@H](CCCNC(=N)N)NC(=O)CNC(=O)CNC(=O)CNC(=O)CNC(=O)CNC(=O)CCCC[C@@H]1SC[C@@H]2NC(=O)N[C@@H]21)[C@@H](C)O)[C@@H](C)O)[C@@H](C)O)[C@@H](C)CC)[C@@H](C)CC)C(=O)N[C@@H](CCCCN)C(=O)N[C@@H](CCCCN)C(N)=O,Caov-3,MALDI-TOF MS,,"7 µM, 1 h, 37 °C",baseline: Caov-3 over CHO-K1,cellular uptake ratio,~3 fold
CC(C)(O)c1cc2c(ccc3c(=O)cc(-c4ccccc4)oc32)o1,differentiated SH-SY5Y,MTT,,1 µM,baseline: control,viability,98.9 ± 4.9%
COC(=O)C1CN1S(=O)(=O)c1ccc(C(C)C)cc1 (centres unmarked),Balb/c 3T3 fibroblasts,"cytotoxicity, neutral red uptake",DMEM with 5% FBS,24 h,,IC50,487 ± 14 µM
NCCCC[C@H](NC(=O)[C@H](CCCCNC(=O)CCC(=O)Nc1nnc(S(N)(=O)=O)s1)NC(=O)[C@H](Cc1ccccc1)NC(=O)[C@H](Cc1ccccc1)NC(=O)CCCc1ccc2ccc3cccc4ccc1c2c34)C(N)=O,NIH/3T3,MTT,,"concentration not given, 24 h, normoxia",,cytotoxicity,not toxic
